Measurements collected from several papers.
Each numbered part is a random draw from the data of one study; scales do not carry over between parts.
Chain of UniProt P00519 (whole entry, unmodified, looked up): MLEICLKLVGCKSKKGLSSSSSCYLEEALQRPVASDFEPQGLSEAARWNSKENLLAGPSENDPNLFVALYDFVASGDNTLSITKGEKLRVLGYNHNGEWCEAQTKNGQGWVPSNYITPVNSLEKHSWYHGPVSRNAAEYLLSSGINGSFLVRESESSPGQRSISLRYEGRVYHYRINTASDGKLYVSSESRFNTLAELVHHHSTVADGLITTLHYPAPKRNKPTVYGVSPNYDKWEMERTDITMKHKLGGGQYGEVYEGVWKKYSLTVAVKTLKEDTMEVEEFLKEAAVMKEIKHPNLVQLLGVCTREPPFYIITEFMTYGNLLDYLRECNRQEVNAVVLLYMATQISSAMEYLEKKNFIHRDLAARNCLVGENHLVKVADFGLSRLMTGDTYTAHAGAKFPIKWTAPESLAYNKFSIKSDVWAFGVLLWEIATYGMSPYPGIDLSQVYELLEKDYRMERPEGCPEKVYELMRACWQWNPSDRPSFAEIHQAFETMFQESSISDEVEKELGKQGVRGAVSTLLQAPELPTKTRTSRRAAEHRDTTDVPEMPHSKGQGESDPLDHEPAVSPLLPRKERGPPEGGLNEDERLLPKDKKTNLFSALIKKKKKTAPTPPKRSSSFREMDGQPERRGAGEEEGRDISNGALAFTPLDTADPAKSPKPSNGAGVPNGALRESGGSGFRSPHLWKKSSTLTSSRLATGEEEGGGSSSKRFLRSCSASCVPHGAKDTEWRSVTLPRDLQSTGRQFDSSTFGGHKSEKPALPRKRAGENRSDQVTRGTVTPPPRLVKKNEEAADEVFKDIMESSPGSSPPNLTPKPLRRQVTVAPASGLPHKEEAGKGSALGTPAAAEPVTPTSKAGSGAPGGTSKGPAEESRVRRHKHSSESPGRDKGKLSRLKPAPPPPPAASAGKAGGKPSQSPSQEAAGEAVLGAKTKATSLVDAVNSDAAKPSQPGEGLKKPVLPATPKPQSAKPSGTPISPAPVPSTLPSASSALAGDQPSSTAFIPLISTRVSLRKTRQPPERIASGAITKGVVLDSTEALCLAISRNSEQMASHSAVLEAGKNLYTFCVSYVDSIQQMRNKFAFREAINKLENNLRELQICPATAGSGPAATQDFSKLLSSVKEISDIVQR
Chain of UniProt Q8IWQ3 (whole entry, looked up): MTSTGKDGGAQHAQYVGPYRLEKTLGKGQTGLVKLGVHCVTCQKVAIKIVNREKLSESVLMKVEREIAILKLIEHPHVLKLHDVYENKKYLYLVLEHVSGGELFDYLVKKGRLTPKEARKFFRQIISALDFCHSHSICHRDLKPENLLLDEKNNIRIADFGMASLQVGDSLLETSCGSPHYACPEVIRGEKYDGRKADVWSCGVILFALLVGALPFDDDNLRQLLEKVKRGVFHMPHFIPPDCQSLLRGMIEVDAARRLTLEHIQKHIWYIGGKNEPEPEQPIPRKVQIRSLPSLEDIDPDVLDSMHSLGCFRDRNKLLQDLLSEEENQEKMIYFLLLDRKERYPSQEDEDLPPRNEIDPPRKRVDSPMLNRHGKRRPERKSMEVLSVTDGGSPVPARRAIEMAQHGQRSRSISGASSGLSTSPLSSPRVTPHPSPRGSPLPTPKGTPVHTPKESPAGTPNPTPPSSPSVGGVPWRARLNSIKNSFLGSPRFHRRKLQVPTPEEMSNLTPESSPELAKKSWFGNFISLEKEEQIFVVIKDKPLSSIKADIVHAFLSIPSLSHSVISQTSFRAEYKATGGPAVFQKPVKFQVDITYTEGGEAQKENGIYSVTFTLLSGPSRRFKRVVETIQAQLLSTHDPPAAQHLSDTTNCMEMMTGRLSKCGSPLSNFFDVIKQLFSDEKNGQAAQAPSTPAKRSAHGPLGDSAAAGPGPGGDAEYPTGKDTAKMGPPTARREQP
Chain of UniProt P10721 (whole entry, unmodified, looked up): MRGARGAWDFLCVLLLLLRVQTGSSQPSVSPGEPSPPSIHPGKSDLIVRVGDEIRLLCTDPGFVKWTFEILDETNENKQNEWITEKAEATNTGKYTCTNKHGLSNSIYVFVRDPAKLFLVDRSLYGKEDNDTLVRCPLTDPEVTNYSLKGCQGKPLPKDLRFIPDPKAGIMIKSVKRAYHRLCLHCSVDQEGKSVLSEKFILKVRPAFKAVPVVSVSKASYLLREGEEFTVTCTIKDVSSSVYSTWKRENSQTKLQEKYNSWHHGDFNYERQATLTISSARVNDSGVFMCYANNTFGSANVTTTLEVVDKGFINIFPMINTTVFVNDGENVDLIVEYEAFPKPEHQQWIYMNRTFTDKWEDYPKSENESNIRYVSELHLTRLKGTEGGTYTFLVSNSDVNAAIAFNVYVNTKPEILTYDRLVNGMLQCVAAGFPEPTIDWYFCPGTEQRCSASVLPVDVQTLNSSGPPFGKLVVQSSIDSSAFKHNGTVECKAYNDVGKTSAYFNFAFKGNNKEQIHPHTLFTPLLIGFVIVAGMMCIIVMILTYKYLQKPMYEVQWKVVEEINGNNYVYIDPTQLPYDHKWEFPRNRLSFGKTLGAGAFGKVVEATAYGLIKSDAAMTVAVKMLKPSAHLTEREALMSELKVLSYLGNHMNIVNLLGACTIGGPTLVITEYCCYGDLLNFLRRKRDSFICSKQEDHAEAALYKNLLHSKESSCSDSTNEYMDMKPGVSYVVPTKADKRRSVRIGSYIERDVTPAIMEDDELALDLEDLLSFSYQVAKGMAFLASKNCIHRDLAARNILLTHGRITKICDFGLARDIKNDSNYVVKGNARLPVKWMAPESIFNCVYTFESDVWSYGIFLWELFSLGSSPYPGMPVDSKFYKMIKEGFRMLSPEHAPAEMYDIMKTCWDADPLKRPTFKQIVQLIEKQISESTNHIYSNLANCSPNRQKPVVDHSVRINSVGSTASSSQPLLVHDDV
Chain of UniProt P09769 (whole entry, looked up): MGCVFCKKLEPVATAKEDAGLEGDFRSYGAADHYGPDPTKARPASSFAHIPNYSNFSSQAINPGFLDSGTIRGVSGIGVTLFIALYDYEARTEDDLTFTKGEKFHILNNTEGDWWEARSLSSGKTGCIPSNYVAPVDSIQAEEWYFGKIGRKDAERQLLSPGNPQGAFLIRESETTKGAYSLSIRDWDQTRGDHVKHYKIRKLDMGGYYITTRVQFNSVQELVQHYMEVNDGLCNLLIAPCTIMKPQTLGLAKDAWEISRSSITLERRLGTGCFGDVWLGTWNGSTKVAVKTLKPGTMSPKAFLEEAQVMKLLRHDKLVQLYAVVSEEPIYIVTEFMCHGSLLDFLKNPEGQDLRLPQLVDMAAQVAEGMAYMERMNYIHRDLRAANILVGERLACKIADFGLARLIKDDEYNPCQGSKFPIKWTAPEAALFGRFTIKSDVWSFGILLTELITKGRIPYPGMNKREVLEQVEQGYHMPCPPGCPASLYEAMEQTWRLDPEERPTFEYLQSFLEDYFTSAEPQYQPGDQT
Chain of UniProt Q8IU85 (whole entry, looked up): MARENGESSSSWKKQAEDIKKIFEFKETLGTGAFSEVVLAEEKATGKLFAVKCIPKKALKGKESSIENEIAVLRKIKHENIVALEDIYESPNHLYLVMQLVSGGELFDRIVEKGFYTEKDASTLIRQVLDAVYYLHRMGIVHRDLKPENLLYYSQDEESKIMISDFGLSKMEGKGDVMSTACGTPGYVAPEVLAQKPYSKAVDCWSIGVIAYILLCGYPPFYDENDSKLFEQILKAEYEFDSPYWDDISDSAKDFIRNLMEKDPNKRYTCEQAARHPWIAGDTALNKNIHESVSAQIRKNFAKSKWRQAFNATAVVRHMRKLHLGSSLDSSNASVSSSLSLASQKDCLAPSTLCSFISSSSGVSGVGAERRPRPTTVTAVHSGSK

Sample 1
Target: Wee1-like protein kinase (WEE1, Homo sapiens, UniProt P30291)
Chain of UniProt P30291 (whole entry, looked up): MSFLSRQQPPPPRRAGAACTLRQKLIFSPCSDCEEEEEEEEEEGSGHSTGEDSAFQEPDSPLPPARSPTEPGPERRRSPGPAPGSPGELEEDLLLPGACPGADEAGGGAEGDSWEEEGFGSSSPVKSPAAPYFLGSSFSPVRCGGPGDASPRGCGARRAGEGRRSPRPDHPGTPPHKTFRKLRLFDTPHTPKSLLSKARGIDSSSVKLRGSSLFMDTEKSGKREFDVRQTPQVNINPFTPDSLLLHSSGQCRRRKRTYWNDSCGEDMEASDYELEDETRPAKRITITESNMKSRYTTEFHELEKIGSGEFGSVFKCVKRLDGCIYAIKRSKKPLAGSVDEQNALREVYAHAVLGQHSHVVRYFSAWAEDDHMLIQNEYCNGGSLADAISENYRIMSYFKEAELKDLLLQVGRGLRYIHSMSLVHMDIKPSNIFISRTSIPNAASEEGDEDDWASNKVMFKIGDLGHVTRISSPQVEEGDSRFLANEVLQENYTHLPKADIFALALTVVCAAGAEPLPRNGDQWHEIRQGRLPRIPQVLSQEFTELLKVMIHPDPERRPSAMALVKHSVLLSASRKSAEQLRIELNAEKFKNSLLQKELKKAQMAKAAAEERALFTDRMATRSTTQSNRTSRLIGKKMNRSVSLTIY
Read-out: enzyme activity
Mode: inhibitor
Tested at: 0.5 µM
Relative to: control
Quantity: remaining activity
SMILES = COc1ccc(C(=O)Nc2sc3c(c2C(N)=O)CCCC3)cc1OC; value = 92.3%
SMILES = N#CC(C#N)=C(N)/C(C#N)=C/c1ccc(O)cc1; value = 93.7%
SMILES = O=c1c2ccccc2[nH]c(=S)n1CCN1CCC(=C(c2ccc(F)cc2)c2ccc(F)cc2)CC1; value = 93%
SMILES = COc1cc2nccc(Oc3ccc(NC(=S)NC(=O)c4ccccc4C)cc3)c2cc1OC; value = 89.6%
SMILES = Cc1nc(-c2ccccc2)c(-c2ccncc2)o1; value = 91.9%
SMILES = CN(C)c1ccc(C=C2C(=O)Nc3ccccc32)cc1; value = 88.6%
SMILES = CCOC(=O)c1c(C)[nH]c(/C=C2\C(=O)Nc3ccccc32)c1C; value = 91.2%
SMILES = Cc1cccc(-c2[nH]c(C(C)(C)C)nc2-c2ccc3c(c2)OCO3)n1; value = 81.5%
SMILES = CO[C@H]1C[C@@H]2CC[C@@H](C)[C@@](O)(O2)C(=O)C(=O)N2CCCC[C@H]2C(=O)O[C@H]([C@H](C)C[C@@H]2CC[C@@H](O)[C@H](OC)C2)CC(=O)[C@H](C)/C=C(\C)[C@@H](O)[C@@H](OC)C(=O)[C@H](C)C[C@H](C)/C=C/C=C/C=C/1C; value = 93.3%
SMILES = OCC(O)CCON=C1C(c2c(O)[nH]c3ccccc23)=Nc2ccccc21 (stereo not drawn); value = 82%
SMILES = CNC(=O)c1cc(Oc2ccc(NC(=O)Nc3ccc(Cl)c(C(F)(F)F)c3)cc2)ccn1; value = 103%
SMILES = O=C1NC(=O)C(c2cn(CCCn3ccnc3)c3ccccc23)=C1Nc1ccccc1; value = 95.8%
SMILES = NCCNc1ncc(C(N)=O)c(Nc2cccc(C(F)(F)F)c2)n1; value = 82%
SMILES = O=C(O)c1ccc2c3c1cccc3c(=O)n1c3ccccc3nc21; value = 84.6%

Sample 2
Target: Beta-1 adrenergic receptor (ADRB1, Homo sapiens, UniProt P08588)
Chain of UniProt P08588 (whole entry, looked up): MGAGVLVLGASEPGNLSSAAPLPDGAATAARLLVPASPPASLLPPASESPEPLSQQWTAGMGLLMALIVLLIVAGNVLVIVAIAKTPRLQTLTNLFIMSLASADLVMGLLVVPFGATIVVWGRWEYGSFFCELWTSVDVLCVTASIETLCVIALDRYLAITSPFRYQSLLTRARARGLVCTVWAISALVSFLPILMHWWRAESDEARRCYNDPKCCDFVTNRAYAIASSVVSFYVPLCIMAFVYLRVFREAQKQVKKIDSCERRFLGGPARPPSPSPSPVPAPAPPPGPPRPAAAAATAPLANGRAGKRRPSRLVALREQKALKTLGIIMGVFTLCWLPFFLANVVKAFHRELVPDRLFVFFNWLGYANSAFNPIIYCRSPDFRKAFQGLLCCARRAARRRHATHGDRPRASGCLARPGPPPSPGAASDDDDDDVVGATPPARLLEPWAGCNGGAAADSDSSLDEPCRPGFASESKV
Mode: agonist
Quantity: EC50
Compound = COc1cc(CNC(C)C)ccc1OCC(O)CN1CCSCC1 (stereo not drawn); value = ≥ 100 µM
Compound = CN(C)c1cccc(-c2ncc3c(n2)OCCN(Cc2ccccc2)C3=O)c1; value = ≥ 100 µM
Compound = COc1ccc(C(=O)NC[C@H]2O[C@@H](CC(=O)N3CCN(c4ccccc4OC)CC3)[C@H](O)[C@@H]2O)cc1; value = ≥ 100 µM
Compound = Cc1noc2c(-c3cccnc3)cc(-c3cccc(C(F)(F)F)c3)nc12; value = ≥ 100 µM
Compound = CCN(C)c1ccc(C(=O)N2CCC(c3c[nH]c4ccc(C(N)=O)cc34)CC2)cc1; value = ≥ 100 µM
Compound = Clc1cccc(N2CCN(c3ncnc4ccsc34)CC2)c1; value = ≥ 100 µM
Compound = Cc1noc2c(N3CCNC(=O)C3)cc(-c3cccc(C(F)(F)F)c3)nc12; value = ≥ 100 µM

Sample 3
SMILES: O=c1nc(-c2ccccn2)sc2ccccc12
Method: competition with immobilised ligand
Tested at: 1 µM
Quantity: remaining binding
target = Insulin receptor (INSR, Homo sapiens, UniProt P06213); assay = cell-free assay; value = 100%
target = CAMK1D (Homo sapiens, UniProt Q8IU85); assay = cell-free assay; value = 90%
target = Tyrosine-protein kinase ABL1, non-phosphorylated (ABL1, Homo sapiens, UniProt P00519, F317I); assay = binding; value = 100%
target = FGR (Homo sapiens, UniProt P09769); assay = cell-free assay; value = 100%
target = BRSK2 (Homo sapiens, UniProt Q8IWQ3); assay = binding; value = 100%
target = Tyrosine-protein kinase ABL1, phosphorylated (ABL1, Homo sapiens, UniProt P00519, F317L); assay = binding; value = 100%
target = KIT (Homo sapiens, UniProt P10721, D816V); assay = binding; value = 100%

Sample 4
Organism: Sarcocystis neurona
Read-out: parasite activity
Tested at: 10 µM
Time: 96 h
Quantity: activity class
SMILES = CC(=O)OCC(CCn1cnc2cnc(N)nc21)COC(C)=O; value = inactive
SMILES = CCOC(=O)[C@H](CCc1ccccc1)N[C@@H](C)C(=O)N1Cc2ccccc2C[C@H]1C(=O)O; value = inactive
SMILES = Cc1ncc([N+](=O)[O-])n1CCO; value = inactive
SMILES = CC(C)[N+](C)(CCOC(=O)C1c2ccccc2Oc2ccccc21)C(C)C; value = inactive
SMILES = O=c1n(CCCN2CCN(c3cccc(Cl)c3)CC2)nc2ccccn12; value = inactive

For quick reference, copied from above (sample 1):
SMILES = COc1cc2nccc(Oc3ccc(NC(=S)NC(=O)c4ccccc4C)cc3)c2cc1OC; value = 89.6%
SMILES = O=C(O)c1ccc2c3c1cccc3c(=O)n1c3ccccc3nc21; value = 84.6%
SMILES = NCCNc1ncc(C(N)=O)c(Nc2cccc(C(F)(F)F)c2)n1; value = 82%
